Experimental data collected from several papers.
Protocols differ between the studies behind these lines. “And” joins repeats or separate records; there may be more than shown. Numbers after ± are the reported error. ≈ marks a conversion by molar mass, not a printed value.

Structure (SMILES) | organism | test | system | conditions | how to read | endpoint | value
Cc1cc(OC(C)C)ccc1C(=O)C(C)(C)NC(=O)c1sccc1C | Botrytis cinerea | mycelial growth | B05.10 | 1 µg/mL | – | inhibition | 100%
[N-]=[N+]=N[C@]1(CO)O[C@@H](n2ccc(N)nc2=O)[C@@H](F)[C@@H]1O | human respiratory syncytial virus | – | A2 RSV-GFP | concentration not given | – | viral replication | no inhibition
N#C[C@@]1(c2ccc3c(N)ncnn23)O[C@H](COC(=O)C2CCC(F)CC2)[C@@H](O)[C@H]1O (stereo partly shown) | human respiratory syncytial virus | viral replication, viral protein ELISA | HEp-2, A2 | 5 days | – | EC50 | 480 ± 65 nM
CC(C)n1ncc2c(C(=O)NCC3(C)CNC3)cc(C3CC3)nc21 | Enterovirus D68 | viral replication | RD, US/MO/14-18947 | 0.01 µM | baseline: untreated | plaque area | 102% and 114%
CC(=O)ON=C1C=CC(=C(C#N)c2ccccc2)C=C1 | Pichia norvegensis | broth dilution | ATCC 96139 | 48 h, 37 °C | – | MFC | 8 µg/mL (≈ 30.3 µM)
CC1(C)S[C@@H]2[C@H](NC(=O)[C@H](N)c3ccccc3)C(=O)N2[C@H]1C(=O)O | Bacillus subtilis | bacterial cytological profiling | ATCC 6633 | – | – | DNA length | 2.34 µm and 2.27 µm and 2.3 µm
CCn1c(=O)c(-c2cc[nH]n2)cc2c(C)nc(N)nc21 | enterovirus A71 | – | suckling mouse, EV71-infected, brain | 0.25 mg/kg | direction not given | perivascular cuffing score | 0
O=c1[nH]c2ncsc2c(=O)n1O | Amaranthus retroflexus | – | – | 1500 g/ha, 21 days, pre-emergence, glasshouse pot | – | growth inhibition | 93.4%
Cc1ccc(S(=O)(=O)Nn2c(N)c(C#N)cc(-c3nc4ccccc4s3)c2=O)cc1 | hepatitis C virus | qRT-PCR | Huh7.5, genotype 4 | concentration not given | – | viral load reduction | 10%
COC(=O)[C@H](Cc1c[nH]c2ccccc12)NCc1cc2ccccc2nc1OC | Pseudomonas aeruginosa | – | – | 8 µg/mL, with: pentamidine 50 µM | baseline: control | growth | 97.9%
O=c1oc2c(O)c(O)cc3c(=O)oc4c(O)c(O)cc1c4c23 | Streptococcus sobrinus | broth microdilution | – | – | – | MBC/MIC ratio | 2
CN(C)[C@@H]1C(O)=C(C(N)=O)C(=O)[C@@]2(O)C(O)=C3C(=O)c4c(O)cccc4[C@@](C)(O)[C@H]3C[C@@H]12 | Bacillus subtilis | bacterial cytological profiling | ATCC 6633 | concentration not given | – | cell area | 1.88 µm² and 1.79 µm² and 1.7 µm²
CO[C@H]1/C=C/O[C@@]2(C)Oc3c(C)c(O)c4c(c3C2=O)C2=NC3(CCN(CC(C)C)CC3)NC2=C(NC(=O)/C(C)=C\C=C\[C@H](C)[C@H](O)[C@@H](C)[C@@H](O)[C@@H](C)[C@H](OC(C)=O)[C@@H]1C)C4=O | Mycobacteroides abscessus | bacterial growth | subsp. abscessus M9 clinical isolate | – | – | IC50 | 1400 nM
CC(C)C[C@H](NC(=O)OCc1ccccc1)C(=O)N[C@H](C=O)C[C@@H]1CCCNC1=O | enterovirus A71 | viral replication, RT-qPCR | RD | 72 h | – | EC50 | 2000 ± 340 nM
COc1cc([C@@H]2c3cc4c(cc3[C@H](O)[C@H]3COC(=O)[C@H]23)OCO4)cc(OC)c1OC | Dengue virus type 2 | plaque | – | 0.1 µM, 24 h pretreatment | – | viral entry inhibition | inactive
[H]/N=C(\N/C(=N/[H])NCCCCCCNC(=N)NC(=N)Nc1ccc(Cl)cc1)Nc1ccc(Cl)cc1 | Streptococcus sobrinus | – | BHI agar | 500 µg/disc | – | zone of inhibition | 19.3 ± 1.2 mm
CO[C@H]1/C=C/O[C@@]2(C)Oc3c(C)c(O)c4c(O)c(c(/C=N/N5CCN(C)CC5)c(O)c4c3C2=O)NC(=O)/C(C)=C\C=C\[C@H](C)[C@H](O)[C@@H](C)[C@@H](O)[C@@H](C)[C@H](OC(C)=O)[C@@H]1C | Bacillus subtilis | bacterial cytological profiling | ATCC 6633 | – | – | DNA length | 1.79 µm and 1.9 µm and 1.74 µm
N=C(N)c1ccc(OCc2ccc(Br)cc2COc2ccc(C(=N)N)cc2)cc1 | Escherichia coli | checkerboard | mcr-3 polymyxin-resistant | unit not given, with: rifampicin | lower = stronger synergy | FICI | ≤ 0.047
CNC(C)C1CCC(N)C(OC2C(N)CC(N)C(OC3OCC(C)(O)C(NC)C3O)C2O)O1 (stereo not shown) | Stenotrophomonas maltophilia | broth microdilution | clinical isolate RKI-No 136/09 | – | – | MIC | 2 µg/mL (≈ 4.19 µM)
Nc1nc(-c2ccccc2)nc2[nH]nc(Nc3ccc(C(F)(F)F)cc3)c12 | coxsackievirus B3 | – | 31-1-93, NMRI mice, CVB3 chronic myocarditis | oral, 100 mg/kg twice daily, day 11, dosed days 3 to 10, score scale 0 to 7 | direction not given | clinical score | 1.5
Cc1nc2[nH]c(=O)n(O)c(=O)c2s1 | Amaranthus retroflexus | – | – | 1500 g/ha, 21 days, post-emergence, glasshouse pot | – | growth inhibition | 64.6%
CC1(C)S[C@@H]2[C@H](NC(=O)[C@H](N)c3ccccc3)C(=O)N2[C@H]1C(=O)O | Pseudomonas aeruginosa | – | clinical isolate RKI-No_613/16 | – | – | MIC | > 16 µg/mL
CN[C@H](CC(C)C)C(=O)N[C@H]1C(=O)N[C@@H](CC(N)=O)C(=O)N[C@H]2C(=O)N[C@H]3C(=O)N[C@H](C(=O)N[C@H](C(=O)O)c4cc(O)cc(O)c4-c4cc3ccc4O)[C@H](O)c3ccc(c(Cl)c3)Oc3cc2cc(c3O[C@@H]2O[C@H](CO)[C@@H](O)[C@H](O)[C@H]2O[C@H]2C[C@](C)(N)[C@H](O)[C@H](C)O2)Oc2ccc(cc2Cl)[C@H]1O | Streptococcus pneumoniae | broth microdilution | penicillin-resistant isolates | – | – | MIC50 | 0.5 µg/mL (≈ 0.345 µM)
Oc1cc(O)c2c(c1)O[C@H](c1cc(O)c(O)c(O)c1)[C@@H](O)C2 | Streptococcus sobrinus | broth microdilution | – | – | – | MBC/MIC ratio | 4
COC[C@H]1O[C@@H]2O[C@H]3[C@H](OC)[C@@H](OC)[C@@H](O[C@H]4[C@H](OC)[C@@H](OC)[C@@H](O[C@H]5[C@H](OC)[C@@H](OC)[C@@H](O[C@H]6[C@H](OC)[C@@H](OC)[C@@H](O[C@H]7[C@H](OC)[C@@H](OC)[C@@H](O[C@H]8[C@H](OC)[C@@H](OC)[C@@H](O[C@H]1[C@H](OC)[C@H]2OC)O[C@@H]8COC)O[C@@H]7COC)O[C@@H]6COC)O[C@@H]5COC)O[C@@H]4COC)O[C@@H]3COC | Escherichia coli | LuxR reporter, antagonist | DH5α sensor strain | 1 µM, with: OHHL 200 nM | – | inhibition | -2 ± 3%
O=C(O)c1cn(C2CC2)c2cc(N3CCNCC3)c(F)cc2c1=O | Bacillus subtilis | bacterial cytological profiling | ATCC 6633 | concentration not given | – | cell length | 6.15 µm and 5.87 µm and 6.17 µm
O=C1OC[C@H]2OC(O)[C@H](O)[C@@H](O)[C@@H]2OC(=O)c2cc(O)c(O)c(O)c2-c2c(O)c(O)c3oc(=O)c4c(c(O)c(O)c5oc(=O)c2c3c54)-c2c1cc(O)c(O)c2O (mixture of isomers) | Streptococcus sobrinus | broth microdilution | – | – | – | MBC/MIC ratio | 2
CC(C)[C@@H](N)C(=O)OC[C@H]1O[C@@](C#N)(c2ccc3c(N)ncnn23)[C@H](O)[C@@H]1O | human respiratory syncytial virus | viral replication, viral protein ELISA | HEp-2, A2 | 5 days | – | EC50 | 1440 ± 360 nM

Some of these lines once more:
Structure (SMILES) | organism | test | system | conditions | how to read | endpoint | value
CC1(C)S[C@@H]2[C@H](NC(=O)[C@H](N)c3ccccc3)C(=O)N2[C@H]1C(=O)O | Pseudomonas aeruginosa | – | clinical isolate RKI-No_613/16 | – | – | MIC | > 16 µg/mL
CNC(C)C1CCC(N)C(OC2C(N)CC(N)C(OC3OCC(C)(O)C(NC)C3O)C2O)O1 (stereo not shown) | Stenotrophomonas maltophilia | broth microdilution | clinical isolate RKI-No 136/09 | – | – | MIC | 2 µg/mL (≈ 4.19 µM)
